Experimental data of several laboratories.
Lines come from different studies, so protocols differ. ± marks the error that the study gave.

Structure (SMILES) = O=c1[nH]c(=O)c(Cc2cccc(C(F)(F)F)c2)c([C@H]2CC[C@H](c3ccccc3)CC2)[nH]1; test system = human, plasma; setting = oral, 450 mg once daily, day 1, fasted, geometric mean; Cmax = 356 ng/mL
Structure (SMILES) = CCCC[C@H](NC(C)=O)C(=O)N[C@H]1CCC(=O)NC[C@@H](C(=O)N[C@@H](Cc2c[nH]c3ccccc23)C(N)=O)NC(=O)[C@H](CCCNC(=N)N)NC(=O)[C@@H](Cc2ccccc2)NC(=O)[C@H](Cc2c[nH]cn2)NC1=O; test system = CD Sprague-Dawley rat, female, plasma; setting = subcutaneous, 1.0 mg/kg/day, day 1; Cmax = 516 ng/mL
Structure (SMILES) = CS(=O)(=O)Nc1ccc(C(=O)O[C@@H](Cc2c(Cl)c[n+]([O-])cc2Cl)c2ccc(OC(F)F)c(OCC3CC3)c2)cc1OCC1CC1; test system = human, plasma; setting = inhaled, 600 µg once daily, day 7, single-dose dry powder inhaler; Cmax = 0.702 ng/mL
Structure (SMILES) = CC(C)NC[C@@H](C(=O)N1CCN(c2ncnc3c2[C@H](C)C[C@H]3O)CC1)c1ccc(Cl)cc1; test system = human, Healthy hepatic function, plasma; setting = oral, 100 mg single dose, NCI classification, geometric mean; Cmax = 50.9 ng/mL
Structure (SMILES) = Cc1cc(Nc2cc3ncccc3c(N[C@@H]3C[C@H]4CC[C@@H](C3)N4CCC#N)n2)n[nH]1; test system = Sprague-Dawley rat, female, plasma; setting = oral, 1000 mg/kg/day, last day of 4 weeks; Cmax = 91.8 ng/mL
Structure (SMILES) = CC1=C2C[C@H]3[C@@H](CC[C@@H]4C[C@H](NS(C)(=O)=O)CC[C@@]43C)[C@@H]2CC[C@@]2(C1)O[C@@H]1C[C@H](C)CN[C@H]1[C@H]2C; test system = patients, plasma; setting = oral, 40 mg daily, day 22, cycle 1; Cmax = 39.7 ng/mL
Structure (SMILES) = CNCc1ccc(-c2[nH]c3cc(F)cc4c3c2CCNC4=O)cc1; test system = human, fasted, plasma; setting = oral, 600 mg, single dose, median; Cmax = 585 ng/mL
Structure (SMILES) = CO[C@H]1C[C@@H]2CC[C@@H](C)[C@@](O)(O2)C(=O)C(=O)N2CCCC[C@H]2C(=O)O[C@H]([C@H](C)C[C@@H]2CC[C@@H](O)[C@H](OC)C2)CC(=O)[C@H](C)/C=C(\C)[C@@H](O)[C@@H](OC)C(=O)[C@H](C)C[C@H](C)/C=C/C=C/C=C/1C; test system = human, whole blood; setting = oral, 20 mg, compound alone; Cmax = 19.3 ng/mL
Structure (SMILES) = Cc1nc2cccc(OCC(C)(C)C(=O)NC(C)C)c2c(N)c1C(=O)O; test system = male Sprague-Dawley rat, plasma; setting = oral, 100 mg/kg, single dose; Cmax = 147 ng/mL
Structure (SMILES) = CC(C)[C@H](N)C(=O)NCCCS(=O)(=O)O; test system = human, plasma; setting = oral, 340 mg capsule, day 14, fed, multiple dosing; Cmax = 8830 ± 2660 ng/mL

A few entries again:
Structure (SMILES) = CC(C)[C@H](N)C(=O)NCCCS(=O)(=O)O; test system = human, plasma; setting = oral, 340 mg capsule, day 14, fed, multiple dosing; Cmax = 8830 ± 2660 ng/mL
